# Results pooled from the literature.
# Lines come from different studies, so protocols differ. Numbers after ± are the reported error.
# Chain of UniProt P0ADV1 (whole entry, looked up): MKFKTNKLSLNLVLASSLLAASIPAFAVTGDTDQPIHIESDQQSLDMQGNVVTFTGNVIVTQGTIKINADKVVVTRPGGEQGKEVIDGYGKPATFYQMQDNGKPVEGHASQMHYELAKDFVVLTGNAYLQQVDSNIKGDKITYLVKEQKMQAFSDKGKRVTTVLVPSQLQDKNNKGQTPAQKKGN
# Chain of UniProt P27467 (whole entry, looked up): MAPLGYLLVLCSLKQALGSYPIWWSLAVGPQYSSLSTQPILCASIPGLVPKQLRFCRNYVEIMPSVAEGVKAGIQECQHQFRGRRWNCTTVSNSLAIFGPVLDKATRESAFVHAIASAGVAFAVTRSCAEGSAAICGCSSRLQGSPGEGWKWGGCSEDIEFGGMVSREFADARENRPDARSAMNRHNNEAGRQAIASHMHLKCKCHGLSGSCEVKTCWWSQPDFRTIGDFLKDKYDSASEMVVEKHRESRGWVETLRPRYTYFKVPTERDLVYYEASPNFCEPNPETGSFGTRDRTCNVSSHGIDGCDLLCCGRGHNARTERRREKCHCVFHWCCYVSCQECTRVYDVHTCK
# Chain of UniProt A0A109QYD3 (whole entry, looked up): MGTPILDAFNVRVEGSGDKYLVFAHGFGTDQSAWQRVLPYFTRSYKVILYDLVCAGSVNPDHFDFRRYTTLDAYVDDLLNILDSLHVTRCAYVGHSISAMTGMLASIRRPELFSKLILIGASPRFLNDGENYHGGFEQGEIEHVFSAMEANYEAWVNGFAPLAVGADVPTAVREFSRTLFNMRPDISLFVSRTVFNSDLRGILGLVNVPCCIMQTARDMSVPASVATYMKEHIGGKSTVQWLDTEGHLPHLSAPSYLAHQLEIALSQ
# Chain of UniProt P15328 (whole entry, looked up): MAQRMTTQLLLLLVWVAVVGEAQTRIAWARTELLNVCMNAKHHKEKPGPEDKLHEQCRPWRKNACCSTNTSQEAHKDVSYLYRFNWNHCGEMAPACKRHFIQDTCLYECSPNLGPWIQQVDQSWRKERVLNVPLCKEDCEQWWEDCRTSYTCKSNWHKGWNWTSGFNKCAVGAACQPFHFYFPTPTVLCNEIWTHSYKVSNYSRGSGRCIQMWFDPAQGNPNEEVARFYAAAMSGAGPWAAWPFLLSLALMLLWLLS
# Chain of UniProt P00691 (whole entry, looked up): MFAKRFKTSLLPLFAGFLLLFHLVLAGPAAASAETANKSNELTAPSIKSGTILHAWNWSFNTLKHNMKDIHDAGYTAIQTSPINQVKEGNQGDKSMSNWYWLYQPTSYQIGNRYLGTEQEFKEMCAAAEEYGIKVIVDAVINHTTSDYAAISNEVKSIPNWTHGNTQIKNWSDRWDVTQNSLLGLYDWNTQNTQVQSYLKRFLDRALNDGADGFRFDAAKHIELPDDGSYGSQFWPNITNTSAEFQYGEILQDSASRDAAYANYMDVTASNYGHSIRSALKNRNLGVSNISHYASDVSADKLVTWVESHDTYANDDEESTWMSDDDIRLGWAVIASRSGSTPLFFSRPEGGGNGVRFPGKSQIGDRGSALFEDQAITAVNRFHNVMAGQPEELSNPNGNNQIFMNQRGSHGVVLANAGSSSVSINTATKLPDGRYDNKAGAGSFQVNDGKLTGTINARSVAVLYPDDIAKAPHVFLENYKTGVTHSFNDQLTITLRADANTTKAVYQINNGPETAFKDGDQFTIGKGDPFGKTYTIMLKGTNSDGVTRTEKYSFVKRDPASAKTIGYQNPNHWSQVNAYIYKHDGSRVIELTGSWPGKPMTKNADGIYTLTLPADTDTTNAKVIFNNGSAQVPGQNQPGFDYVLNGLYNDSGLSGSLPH
# Chain of UniProt P22629 (whole entry, looked up): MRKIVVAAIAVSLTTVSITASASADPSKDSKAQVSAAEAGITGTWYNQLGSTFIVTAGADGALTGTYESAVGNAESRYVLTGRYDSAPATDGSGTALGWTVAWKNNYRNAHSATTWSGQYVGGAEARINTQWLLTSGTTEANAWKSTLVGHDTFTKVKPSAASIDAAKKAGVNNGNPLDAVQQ
# Chain of UniProt Q9Z1N2 (whole entry, looked up): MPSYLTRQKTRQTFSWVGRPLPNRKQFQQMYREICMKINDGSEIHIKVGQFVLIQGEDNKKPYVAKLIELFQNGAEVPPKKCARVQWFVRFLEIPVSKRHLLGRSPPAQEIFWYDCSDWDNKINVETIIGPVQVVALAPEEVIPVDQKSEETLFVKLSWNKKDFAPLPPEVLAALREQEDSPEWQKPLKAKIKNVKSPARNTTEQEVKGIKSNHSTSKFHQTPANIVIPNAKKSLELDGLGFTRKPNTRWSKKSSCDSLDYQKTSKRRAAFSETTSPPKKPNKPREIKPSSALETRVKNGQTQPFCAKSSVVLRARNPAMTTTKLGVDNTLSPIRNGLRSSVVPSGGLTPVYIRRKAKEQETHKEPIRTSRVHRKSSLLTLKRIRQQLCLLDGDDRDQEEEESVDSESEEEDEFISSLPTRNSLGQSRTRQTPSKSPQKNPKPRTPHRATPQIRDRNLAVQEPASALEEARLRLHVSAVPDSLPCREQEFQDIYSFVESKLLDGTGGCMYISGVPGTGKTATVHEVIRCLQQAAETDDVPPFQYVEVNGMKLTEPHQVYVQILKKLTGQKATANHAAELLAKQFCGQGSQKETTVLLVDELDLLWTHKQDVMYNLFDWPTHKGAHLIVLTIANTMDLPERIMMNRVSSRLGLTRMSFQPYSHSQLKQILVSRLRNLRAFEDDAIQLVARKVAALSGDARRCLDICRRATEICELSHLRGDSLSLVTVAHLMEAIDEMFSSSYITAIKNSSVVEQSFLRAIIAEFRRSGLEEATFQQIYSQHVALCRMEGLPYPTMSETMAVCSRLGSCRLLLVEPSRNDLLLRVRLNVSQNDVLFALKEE
# Chain of UniProt P46587 (whole entry, looked up): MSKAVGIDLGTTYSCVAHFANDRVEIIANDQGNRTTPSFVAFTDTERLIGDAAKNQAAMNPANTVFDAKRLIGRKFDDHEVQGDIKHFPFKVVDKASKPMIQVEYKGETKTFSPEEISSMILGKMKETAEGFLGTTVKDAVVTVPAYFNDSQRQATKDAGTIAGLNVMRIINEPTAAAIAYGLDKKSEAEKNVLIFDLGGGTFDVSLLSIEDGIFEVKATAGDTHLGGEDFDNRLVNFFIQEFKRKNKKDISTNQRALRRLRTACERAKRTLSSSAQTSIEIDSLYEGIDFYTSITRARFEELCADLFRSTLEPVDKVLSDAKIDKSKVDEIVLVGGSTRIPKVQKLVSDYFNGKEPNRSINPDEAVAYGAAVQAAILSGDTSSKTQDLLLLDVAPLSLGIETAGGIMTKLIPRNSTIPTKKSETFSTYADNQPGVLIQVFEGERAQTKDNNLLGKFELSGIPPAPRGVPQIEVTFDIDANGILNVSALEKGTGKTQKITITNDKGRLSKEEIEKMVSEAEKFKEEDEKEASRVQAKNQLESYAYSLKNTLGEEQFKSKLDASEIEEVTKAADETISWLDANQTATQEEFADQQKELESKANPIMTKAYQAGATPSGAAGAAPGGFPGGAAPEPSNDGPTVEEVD
# Chain of UniProt Q06830 (whole entry, looked up): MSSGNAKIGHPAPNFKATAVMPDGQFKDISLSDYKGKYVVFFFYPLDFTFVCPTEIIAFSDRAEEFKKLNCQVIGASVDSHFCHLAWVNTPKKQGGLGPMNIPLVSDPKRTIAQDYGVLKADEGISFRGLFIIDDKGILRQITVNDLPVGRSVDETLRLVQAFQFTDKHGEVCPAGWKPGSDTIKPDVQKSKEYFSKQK
# Chain of UniProt P38169 (1-394, unmodified, looked up): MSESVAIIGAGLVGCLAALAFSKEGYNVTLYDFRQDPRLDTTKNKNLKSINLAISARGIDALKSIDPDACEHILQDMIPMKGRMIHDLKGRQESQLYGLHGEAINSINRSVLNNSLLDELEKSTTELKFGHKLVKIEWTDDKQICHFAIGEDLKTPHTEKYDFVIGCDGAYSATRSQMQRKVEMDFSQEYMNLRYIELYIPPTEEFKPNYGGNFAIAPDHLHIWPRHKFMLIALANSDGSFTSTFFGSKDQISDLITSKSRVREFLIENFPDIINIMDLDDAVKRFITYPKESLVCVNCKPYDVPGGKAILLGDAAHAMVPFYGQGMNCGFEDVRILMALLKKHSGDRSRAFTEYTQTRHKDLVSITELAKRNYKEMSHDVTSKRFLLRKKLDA
# Chain of UniProt P22607 (whole entry, looked up): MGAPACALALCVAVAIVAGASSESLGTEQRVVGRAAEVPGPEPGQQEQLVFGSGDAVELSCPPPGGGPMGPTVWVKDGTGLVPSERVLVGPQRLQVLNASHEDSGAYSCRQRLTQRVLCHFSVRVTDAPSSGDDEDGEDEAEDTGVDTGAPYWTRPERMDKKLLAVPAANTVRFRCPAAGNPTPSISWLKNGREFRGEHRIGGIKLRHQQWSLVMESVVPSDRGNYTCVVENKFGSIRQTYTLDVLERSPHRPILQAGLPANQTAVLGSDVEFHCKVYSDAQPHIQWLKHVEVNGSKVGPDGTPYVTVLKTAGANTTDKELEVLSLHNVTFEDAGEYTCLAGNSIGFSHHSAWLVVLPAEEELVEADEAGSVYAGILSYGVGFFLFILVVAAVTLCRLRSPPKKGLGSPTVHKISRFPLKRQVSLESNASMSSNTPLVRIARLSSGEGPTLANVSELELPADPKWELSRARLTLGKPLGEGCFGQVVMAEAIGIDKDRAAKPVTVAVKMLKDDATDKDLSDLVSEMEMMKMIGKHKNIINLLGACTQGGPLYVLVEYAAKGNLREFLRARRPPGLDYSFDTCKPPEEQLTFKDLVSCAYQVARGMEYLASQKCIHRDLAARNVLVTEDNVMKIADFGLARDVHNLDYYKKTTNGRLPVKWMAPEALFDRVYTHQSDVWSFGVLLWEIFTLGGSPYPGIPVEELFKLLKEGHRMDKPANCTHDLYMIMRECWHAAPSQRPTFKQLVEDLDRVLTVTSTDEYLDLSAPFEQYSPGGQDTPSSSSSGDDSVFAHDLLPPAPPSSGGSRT
Structure (SMILES),target,assay,system,setting,Kd [µM]
CC[C@H](C)[C@H](NC(=O)[C@H](Cc1ccccc1)NC(=O)[C@H](C)NC(=O)[C@@H](N)CCCNC(=N)N)C(=O)N[C@@H](C)C(=O)N[C@@H](CO)C(=O)N[C@@H](CCCNC(=N)N)C(=O)N[C@@H](CCCNC(=N)N)C(=O)N[C@H](C(=O)N[C@@H](CCCNC(=N)N)C(=O)N[C@@H](CCCNC(=N)N)C(=O)N1CCC[C@H]1C(=O)NCC(=O)NCC(=O)NCC(=O)NCC(=O)N[C@@H](CS)C(=O)N[C@@H](CC(C)C)C(=O)N[C@@H](CC(C)C)C(=O)N[C@@H](CCCNC(=N)N)C(=O)N[C@@H](CC(C)C)C(=O)N[C@@H](CCCNC(=N)N)C(=O)N[C@@H](CC(=O)O)C(=O)N[C@H](C(=O)N[C@H](C(=O)N[C@@H](CS)C(=O)N[C@@H](Cc1c[nH]cn1)C(=O)N[C@@H](Cc1ccc(O)cc1)C(=O)N[C@@H](Cc1c[nH]c2ccccc12)C(=O)N[C@H](C(=O)N[C@@H](CCC(N)=O)C(=O)O)[C@@H](C)O)[C@@H](C)O)[C@@H](C)O)[C@@H](C)CC,"Streptavidin (Streptomyces avidinii, UniProt P22629)",binding,,,0.015
COc1nc(CC=C(C)CC=CC(C)=CC(C)C(OC2OC(CO)C(O)C(O)C2O)C(C)=CCO)c(C)c(O)c1OC (stereo not shown),"Peroxiredoxin-1 (PRDX1, Homo sapiens, UniProt Q06830)","binding, SPR",,,0.426
O=C(O)C1CC1C(=O)c1ccc(Cl)c(Cl)c1 (stereo not shown),"Kynurenine 3-monooxygenase, residues 1-394 (Saccharomyces cerevisiae, UniProt P38169)","binding, flavin fluorescence",,25 °C,0.14 ± 0.01
Nc1nc2ncc(CNc3ccc(C(=O)N[C@@H](CCC(=O)NCCOCCOCCNC(=O)CN4CCN5CCN(CC4)CC(=O)[O][Al]([F])[O]C(=O)C5)C(=O)O)cc3)nc2c(=O)[nH]1 [fluorine-18 labelled],"FOLR1 (Homo sapiens, UniProt P15328)",radioligand saturation binding,CAL-51 xenograft homogenate,,0.0011
CC(C)P(=S)(NP(=[Se])(C(C)C)C(C)C)C(C)C,"Alpha-amylase (Bacillus subtilis, UniProt P00691)",fluorescence quenching,,310 K,1490
CC1=CC(Oc2c(F)cc3c(C)cc(=O)oc3c2F)OC1=O (racemic),"RMS3 (Lathyrus oleraceus, UniProt A0A109QYD3)","binding, fluorescence",,,74.1
CC[C@H](C)[C@H](NC(=O)[C@H](CC(=O)O)NC(=O)CNC(=O)[C@@H](NC(=O)[C@@H](NC(=O)[C@H](CCC(=O)O)NC(=O)CNC(=O)CCCCCNC(=O)CCCC[C@@H]1SC[C@@H]2NC(=O)N[C@@H]21)[C@@H](C)CC)[C@@H](C)CC)C(=O)N[C@@H](CCCNC(=N)N)C(=O)N[C@@H](CCC(N)=O)C(=O)N[C@@H](C)C(=O)N[C@@H](Cc1c[nH]cn1)C(=O)N[C@@H](CO)C(=O)N[C@@H](CC(=O)N[C@@H]1O[C@H](CO)[C@@H](O[C@@H]2O[C@H](CO)[C@@H](O[C@@H]3O[C@H](CO[C@H]4O[C@H](CO[C@H]5O[C@H](CO)[C@@H](O)[C@H](O)[C@@H]5O[C@H]5O[C@H](CO)[C@@H](O)[C@H](O)[C@@H]5O)[C@@H](O)[C@H](O[C@H]5O[C@H](CO)[C@@H](O)[C@H](O)[C@@H]5O[C@H]5O[C@H](CO)[C@@H](O)[C@H](O)[C@@H]5O)[C@@H]4O)[C@@H](O)[C@H](O[C@H]4O[C@H](CO)[C@@H](O)[C@H](O)[C@@H]4O[C@H]4O[C@H](CO)[C@@H](O)[C@H](O)[C@@H]4O[C@H]4O[C@H](CO)[C@@H](O)[C@H](O)[C@@H]4O)[C@@H]3O)[C@H](O)[C@H]2NC(C)=O)[C@H](O)[C@H]1NC(C)=O)C(=O)N[C@H](C(=O)N[C@@H](CO)C(=O)N[C@@H](CCCNC(=N)N)C(=O)N[C@@H](C)C(=O)N[C@@H](CCCCN)C(=O)N[C@@H](Cc1c[nH]c2ccccc12)C(=O)N[C@@H](CC(N)=O)C(N)=O)[C@@H](C)CC,PGT128 antibody,SPR,,"pH 7.4, 25 °C",4.35
C[C@H](NC(=O)[C@H](Cc1c[nH]cn1)NC(=O)[C@H](CO)NC(=O)[C@H](CC(=O)O)NC(=O)CCCC[C@@H]1SC[C@@H]2NC(=O)N[C@@H]21)C(=O)N[C@@H](CCCCN)C(=O)N[C@@H](CCCNC(=N)N)C(=O)N[C@@H](Cc1c[nH]cn1)C(=O)N[C@@H](Cc1c[nH]cn1)C(=O)NCC(=O)N[C@@H](Cc1ccc(O)cc1)C(=O)N[C@@H](CCCCN)C(=O)N[C@@H](CCCNC(=N)N)C(=O)N[C@@H](CCCCN)C(=O)N[C@@H](Cc1ccccc1)C(=O)N[C@@H](Cc1c[nH]cn1)C(=O)N[C@@H](CCC(=O)O)C(=O)N[C@@H](CCCCN)C(=O)N[C@@H](Cc1c[nH]cn1)C(=O)N[C@@H](Cc1c[nH]cn1)C(=O)N[C@@H](CO)C(=O)N[C@@H](Cc1c[nH]cn1)C(=O)N[C@@H](CCCNC(=N)N)C(=O)NCC(=O)N[C@@H](Cc1ccc(O)cc1)C(=O)O,"Heat shock protein SSA2 (SSA2, Candida albicans, UniProt P46587)",FPLC gel filtration,,"pH 7.4, together with: no nucleotide",5.4 ± 0.3
CC(C)C[C@@H]1NC(=O)[C@H](Cc2ccc(O)cc2)NC(=O)[C@H](CCCCN)NC(=O)[C@H](CCCNC(=N)N)NC(=O)[C@@H](Cc2ccc(O)cc2)NC(=O)CSC[C@@H](C(=O)NCC(N)=O)NC(=O)[C@H](Cc2c[nH]c3ccccc23)NC(=O)[C@@H]2CCCN2C(=O)[C@H](Cc2ccccc2)NC(=O)[C@H](CCCNC(=N)N)NC(=O)[C@H](CCC(=O)O)NC(=O)[C@H](Cc2ccc(O)cc2)NC1=O,"Protein Wnt-3a, with afamin-Fc (Mus musculus, UniProt P27467)","binding, SPR steady-state",,Fc-captured Wnt3a-afamin-Fc,0.0395
C#CC[C@H](NC(=O)CNC(=O)[C@H](CO)NC(=O)[C@@H]1CCCCNC(=O)CCCC(=O)N[C@@H](CCSC)C(=O)N[C@@H](Cc2c[nH]c3ccccc23)C(=O)N2CCC[C@H]2C(=O)N[C@@H](Cc2c[nH]cn2)C(=O)N[C@@H](CCCNC(=N)N)C(=O)N[C@@H](C(C)C)C(=O)N[C@@H]([C@@H](C)O)C(=O)N[C@@H](C)C(=O)N(C)[C@@H](C)C(=O)N1)C(=O)O,"Microtubule-associated protein 1 light chain 3 alpha (Homo sapiens, UniProt Q9H492)",fluorescence polarization,,,0.121 ± 0.019
CC(C)C[C@H](NC(=O)[C@@H](NC(=O)[C@H](CCCCN(C)C)NC(=O)[C@H](CCCNC(=N)N)NC(=O)[C@H](Cc1c[nH]cn1)NC(=O)[C@H](CCCNC(=N)N)NC(=O)[C@H](CCCCN)NC(=O)[C@H](C)NC(=O)CN)C(C)C)C(=O)N[C@@H](CCCNC(=N)N)C(=O)N[C@@H](CC(=O)O)C(=O)N[C@@H](CC(N)=O)C(=O)O,"Origin recognition complex subunit 1, BAH domain (Orc1, Mus musculus, UniProt Q9Z1N2)","binding, isothermal titration calorimetry",,"pH 7.5, 5 °C, histone H4 peptide binding",9.6
NCC(=O)NCC(=O)N[C@@H](Cc1c[nH]cn1)C(=O)O,HCV IV RNA,fluorescein-labelled RNA titration,,1 mM TCEP,260 ± 80
CSCC[C@H](NC(C)=O)C(=O)N[C@H](C(=O)N[C@@H](Cc1ccccc1)C(=O)N[C@@H](CC(C)C)C(=O)N[C@@H](CC(=O)O)C(=O)N[C@H](C(=O)N[C@H]1CSCc2cccc(c2)CSC[C@@H](C(=O)N[C@@H](Cc2ccc(O)cc2)C(=O)N[C@H](C(=O)N[C@@H](CO)C(=O)N[C@@H](Cc2ccccc2)C(=O)N[C@@H](CCSC)C(=O)NCC(=O)N[C@@H](CO)C(=O)NCC(=O)N[C@@H](CO)C(=O)NCC(=O)N[C@@H](CO)C(=O)N[C@@H](CC(=O)O)C(=O)N[C@@H](Cc2ccc(O)cc2)C(=O)N[C@@H](CCCCN)C(=O)N[C@@H](CC(=O)O)C(=O)N[C@@H](CC(=O)O)C(=O)N[C@@H](CC(=O)O)C(=O)N[C@@H](CC(=O)O)C(=O)N[C@@H](CCCCN)C(N)=O)C(C)C)NC(=O)[C@H](CCCNC(=N)N)NC(=O)[C@H]([C@@H](C)O)NC1=O)[C@@H](C)O)[C@@H](C)O,"FGFR3 (Homo sapiens, UniProt P22607)","binding, BLI",,,0.34
CC[C@H](C)[C@H](NC(=O)[C@H](CCCNC(=N)N)NC(=O)[C@H](CCCNC(=N)N)NC(=O)[C@@H]1CSSC[C@H](NC(=O)[C@H](C)NC(=O)[C@@H](NC(=O)[C@@H](NC(=O)[C@@H]2CCCN2C(=O)[C@@H](NC(=O)[C@@H]2CCCN2C(=O)[C@H](CCCCN)NC(=O)[C@H](CO)NC(=O)CN)C(C)C)[C@@H](C)CC)[C@@H](C)CC)C(=O)N[C@@H](CC(N)=O)C(=O)N[C@@H](CCCNC(=N)N)C(=O)N[C@@H](CCCCN)C(=O)N[C@@H]([C@@H](C)O)C(=O)NCC(=O)N[C@@H](CCCCN)C(=O)N1)C(=O)O,"lptA (Escherichia coli, UniProt P0ADV1)","binding, BLI",,,0.0008
CC[C@H](C)[C@H](NC(=O)[C@H](CCCCN)NC(=O)[C@H](CC(C)C)NC(=O)[C@H](Cc1ccccc1)NC(=O)[C@@H](NC(=O)[C@@H](N)CCCCN)[C@@H](C)O)C(=O)N[C@@H](CS)C(=O)N[C@@H](CCCCN)C(=O)N[C@@H](CCCNC(=N)N)C(=O)N1CCC[C@H]1C(=O)N[C@@H](Cc1ccc(O)cc1)C(=O)N[C@H](C(=O)N1CCC[C@H]1C(=O)N[C@@H](CO)C(=O)N[C@@H](CCC(=O)O)C(=O)N1CCC[C@H]1C(N)=O)C(C)C,Leishmania secreted acid phosphatase,surface plasmon resonance,,"pH 6.5, 25 °C",0.00442 ± 9e-05
CC(C)C[C@H](NC(=O)[C@H](Cc1ccccc1)NC(=O)[C@H](CCCNC(=N)N)NC(=O)[C@H](C)NC(=O)[C@H](Cc1ccccc1)NC(=O)[C@H](Cc1ccccc1)NC(=O)[C@@H]1CCCN1C(=O)[C@H](CC(C)C)NC(=O)[C@H](C)NC(=O)[C@H](CCCCN)NC(=O)CN)C(=O)N[C@@H](CO)C(=O)N[C@H](C(=O)N[C@@H](CO)C(=O)O)C(C)C,"uncharacterized protein (Microcystis aeruginosa MRC, UniProt B2G3D0)",isothermal titration calorimetry,,"pH 8.0, 25 °C",0.308 ± 0.062

# Excerpt of the above:
Structure (SMILES),target,assay,system,setting,Kd [µM]
CC[C@H](C)[C@H](NC(=O)[C@H](CCCCN)NC(=O)[C@H](CC(C)C)NC(=O)[C@H](Cc1ccccc1)NC(=O)[C@@H](NC(=O)[C@@H](N)CCCCN)[C@@H](C)O)C(=O)N[C@@H](CS)C(=O)N[C@@H](CCCCN)C(=O)N[C@@H](CCCNC(=N)N)C(=O)N1CCC[C@H]1C(=O)N[C@@H](Cc1ccc(O)cc1)C(=O)N[C@H](C(=O)N1CCC[C@H]1C(=O)N[C@@H](CO)C(=O)N[C@@H](CCC(=O)O)C(=O)N1CCC[C@H]1C(N)=O)C(C)C,Leishmania secreted acid phosphatase,surface plasmon resonance,,"pH 6.5, 25 °C",0.00442 ± 9e-05
